Assay results pooled from the literature.
Compare with care: the assays were run in different laboratories. ≈ marks a conversion by molar mass, not a printed value.

| SMILES | test | test system | setting | quantity | value |
| --- | --- | --- | --- | --- | --- |
| CCCCC(CC)COC(=O)CC(C(=O)OCC(CC)CCCC)S(=O)(=O)O.CCCSc1ccc2[nH]c(NC(=O)OC)nc2c1 (stereo not shown) | – | water | – | solubility | < 1 µg/mL |
| CC[C@H](C)[C@H](NC(=O)[C@H](C)NC(=O)CNC(=O)[C@H](Cc1ccccc1)NC(=O)[C@H](CC(N)=O)NC(=O)[C@H](CC(N)=O)NC(=O)[C@H](CO)NC(=O)[C@H](CO)NC(=O)[C@H](Cc1c[nH]cn1)NC(=O)[C@@H](NC(=O)[C@H](CC(C)C)NC(=O)[C@H](Cc1ccccc1)NC(=O)[C@H](CC(N)=O)NC(=O)[C@H](C)NC(=O)[C@H](CC(C)C)NC(=O)[C@H](CCCNC(=N)N)NC(=O)[C@H](CCC(N)=O)NC(=O)[C@@H](NC(=O)[C@H](C)NC(=O)[C@@H]1CSSC[C@H](NC(=O)[C@@H](N)CCCCN)C(=O)N[C@@H](CC(N)=O)C(=O)N[C@@H]([C@@H](C)O)C(=O)N[C@@H](C)C(=O)N[C@@H]([C@@H](C)O)C(=O)N1)[C@@H](C)O)C(C)C)C(=O)N[C@@H](CC(C)C)C(=O)N[C@@H](CO)C(=O)N[C@@H](CO)C(=O)N[C@H](C(=O)N[C@@H](CC(N)=O)C(=O)N[C@H](C(=O)NCC(=O)N[C@@H](CO)C(=O)N[C@@H](CC(N)=O)C(=O)N[C@H](C(=O)N[C@@H](Cc1ccc(O)cc1)C(N)=O)[C@@H](C)O)C(C)C)[C@@H](C)O[C@H]1O[C@H](CO[C@]2(C(=O)O)C[C@H](O)[C@@H](NC(C)=O)[C@H]([C@H](O)[C@H](O)CO)O2)[C@H](O)[C@H](O[C@@H]2O[C@H](CO)[C@H](O)[C@H](O)[C@H]2O)[C@H]1NC(C)=O | – | PBS | 1 h, pH 7.4 | thermodynamic solubility | 3660 µg/mL (≈ 803 µM) |
| CN1CCCCC1C(=O)NC(Cc1ccc(-c2ccccc2)cc1)B(O)O (stereo not shown) | nephelometry | aqueous buffer | pH 6.8 | solubility | > 200 µM |
| NC1CCN(C(=O)Oc2cccc([C@H]3CCC[C@@]4(C3)OOC3(O4)C4CC5CC(C4)CC3C5)c2)C1 (stereo partly shown) | – | PBS | pH 7.4 | kinetic solubility | 24.6 µM (≈ 11.5 µg/mL) |
| CC1COC2=C1C(=O)C(=O)c1c2ccc2c1C(OC(=O)CNC(=O)C(N)CO)CCC2(C)C (mixture of isomers) | – | PBS | pH 4, 25 °C | thermodynamic solubility | 785 µg/mL |
| Cc1ncsc1-c1ccc(CNC(=O)[C@@H]2C[C@@H](O)CN2C(=O)[C@@H](NC(=O)CCCCCCCCC(=O)N2CCN(c3ncc(-c4cc(NC(=O)c5ccc(F)cc5C(F)(F)F)c(N5C[C@@H](C)N(C)[C@@H](C)C5)cc4F)cn3)CC2)C(C)(C)C)cc1 | – | aqueous buffer | pH 7.4 | kinetic solubility | 0.198 µM (≈ 0.235 µg/mL) |
| CC[C@H](C)[C@H](NC(=O)[C@H](C)NC(=O)CNC(=O)[C@H](Cc1ccccc1)NC(=O)[C@H](CC(N)=O)NC(=O)[C@H](CC(N)=O)NC(=O)[C@H](CO)NC(=O)[C@H](CO)NC(=O)[C@H](Cc1c[nH]cn1)NC(=O)[C@@H](NC(=O)[C@H](CC(C)C)NC(=O)[C@H](Cc1ccccc1)NC(=O)[C@H](CC(N)=O)NC(=O)[C@H](C)NC(=O)[C@H](CC(C)C)NC(=O)[C@H](CCCNC(=N)N)NC(=O)[C@H](CCC(N)=O)NC(=O)[C@@H](NC(=O)[C@H](C)NC(=O)[C@@H]1CSSC[C@H](NC(=O)[C@@H](N)CCCCN)C(=O)N[C@@H](CC(N)=O)C(=O)N[C@@H]([C@@H](C)O)C(=O)N[C@@H](C)C(=O)N[C@@H]([C@@H](C)O)C(=O)N1)[C@@H](C)O[C@H]1O[C@H](CO[C@]2(C(=O)O)C[C@H](O)[C@@H](NC(C)=O)[C@H]([C@H](O)[C@H](O)CO)O2)[C@H](O)[C@H](O)[C@H]1NC(C)=O)C(C)C)C(=O)N[C@@H](CC(C)C)C(=O)N[C@@H](CO)C(=O)N[C@@H](CO)C(=O)N[C@H](C(=O)N[C@@H](CC(N)=O)C(=O)N[C@H](C(=O)NCC(=O)N[C@@H](CO)C(=O)N[C@@H](CC(N)=O)C(=O)N[C@H](C(=O)N[C@@H](Cc1ccc(O)cc1)C(N)=O)[C@@H](C)O)C(C)C)[C@@H](C)O | – | PBS | 1 h, pH 7.4 | thermodynamic solubility | 706 µg/mL (≈ 161 µM) |
| CC1COC2=C1C(=O)C(=O)c1c2ccc2c1C(OC(=O)CNC(=O)CN)CCC2(C)C (mixture of isomers) | – | PBS | pH 7.4, 25 °C | thermodynamic solubility | 178 µg/mL |
| CC[C@H](C)[C@H](NC(=O)[C@H](C)NC(=O)CNC(=O)[C@H](Cc1ccccc1)NC(=O)[C@H](CC(N)=O)NC(=O)[C@H](CC(N)=O)NC(=O)[C@H](CO)NC(=O)[C@H](CO)NC(=O)[C@H](Cc1c[nH]cn1)NC(=O)[C@@H](NC(=O)[C@H](CC(C)C)NC(=O)[C@H](Cc1ccccc1)NC(=O)[C@H](CC(N)=O)NC(=O)[C@H](C)NC(=O)[C@H](CC(C)C)NC(=O)[C@H](CCCNC(=N)N)NC(=O)[C@H](CCC(N)=O)NC(=O)[C@@H](NC(=O)[C@H](C)NC(=O)[C@@H]1CSSC[C@H](NC(=O)[C@@H](N)CCCCN)C(=O)N[C@@H](CC(N)=O)C(=O)N[C@@H]([C@@H](C)O)C(=O)N[C@@H](C)C(=O)N[C@@H]([C@@H](C)O)C(=O)N1)[C@@H](C)O)C(C)C)C(=O)N[C@@H](CC(C)C)C(=O)N[C@@H](CO)C(=O)N[C@@H](CO)C(=O)N[C@H](C(=O)N[C@@H](CC(N)=O)C(=O)N[C@H](C(=O)NCC(=O)N[C@@H](CO)C(=O)N[C@@H](CC(N)=O)C(=O)N[C@H](C(=O)N[C@@H](Cc1ccc(O)cc1)C(N)=O)[C@@H](C)O)C(C)C)[C@@H](C)O[C@H]1O[C@H](CO[C@]2(C(=O)O)C[C@H](O)[C@@H](NC(C)=O)[C@H]([C@H](O)[C@H](O)CO)O2)[C@H](O)[C@H](O)[C@H]1NC(C)=O | – | PBS | 1 h, pH 7.4 | thermodynamic solubility | 3520 µg/mL (≈ 800 µM) |
| CC1COC2=C1C(=O)C(=O)c1c2ccc2c1C(OC(=O)CNC(=O)C(N)CCC(=O)O)CCC2(C)C (mixture of isomers) | – | PBS | pH 5.5, 25 °C | thermodynamic solubility | 1870 µg/mL |

A few entries again:
| SMILES | test | test system | setting | quantity | value |
| --- | --- | --- | --- | --- | --- |
| NC1CCN(C(=O)Oc2cccc([C@H]3CCC[C@@]4(C3)OOC3(O4)C4CC5CC(C4)CC3C5)c2)C1 (stereo partly shown) | – | PBS | pH 7.4 | kinetic solubility | 24.6 µM (≈ 11.5 µg/mL) |
